Results collected from several papers.
Lines come from different studies, so protocols differ. Numbers after ± are the reported error. In brackets after ≈: the same amount, converted by molar mass.

Molecule | assay | system | setting | how to read | quantity | result
CC1=CC(c2ccccc2)=NS(=O)(=O)N1 | plate reader | PVC/DOS polymer film-water | neutral form | – | log P | 1.1 ± 0.03
CCCOc1ccc([C@H]2CNC(=O)N2c2ccc3[nH]cnc3c2)cc1 | – | human, plasma | oral, 800 mg, single dose, fasted, healthy volunteers | – | Tmax | 90 min
C[C@@H](c1ccc2nccn2c1)n1nnc2ncc(-c3cnn(C)c3)nc21 | refers to: AEs possibly related to any treatment | EGFR-mutant MET-altered NSCLC patients | oral, dose not given, all | – | AEs leading to discontinuation | 28%
COc1cc(OC)c(/C=C/S(=O)(=O)Cc2ccc(OC)c(NCC(=O)O)c2)c(OC)c1 | – | cancer patients, phase I, plasma | oral, 140 mg twice daily, day 1 cycle 1 | – | AUC(0-inf) | 3.49 ± 5.25 µg·h/mL
des-acyl ghrelin (human) | – | Ghsr knockout mice, olfactory bulb | intravenous, dose not given, 10 min, vascular space corrected | – | tissue/serum ratio | 15.9 µL/g
Ac-LRKLRKRLLRDWLKAFYDKVAEKLKEAF-NH2 (N-acetyl, C-amide) | – | peptide, APP/PS1ΔE9 mice, brain | intravenous, dose not given, 6 h, 14C-labeled | – | brain concentration | 163 ± 11 nM
CCCC[C@H](NC(C)=O)C(=O)N[C@H]1CCC(=O)NC[C@@H](C(=O)N[C@@H](Cc2c[nH]c3ccccc23)C(N)=O)NC(=O)[C@H](CCCNC(=N)N)NC(=O)[C@@H](Cc2ccccc2)NC(=O)[C@H](Cc2c[nH]cn2)NC1=O | – | healthy human, both sexes, plasma | subcutaneous, 3.0 mg once daily, day 1, arithmetic mean | – | Vd/F | 257 L
CCCC[C@@H]1NC(=O)[C@@H](NC(=O)[C@H](CCC(=O)O)NC(=O)CNC(=O)CN2CCN(CC(=O)O)CCN(CC(=O)O)CCN(CC(=O)O)CC2)CCCCNC(=O)C[C@@H](C(N)=O)NC(=O)[C@H](C(C)C)NC(=O)[C@@H]2CCCN2C(=O)[C@H](CCCNC(=N)N)NC(=O)CNC(=O)[C@H](Cc2c[nH]c3ccccc23)NC(=O)[C@H](CCCNC(=N)N)NC(=O)[C@@H](Cc2ccccc2)NC(=O)[C@H](Cc2c[nH]cn2)NC(=O)[C@H](CCC(=O)O)NC1=O [indium-111 labelled] | – | normal C57 mice, stomach | intravenous, 0.037 MBq, 24 h | – | tissue uptake | 0.06 ± 0.02 %ID/g
CCCCCCCCCCCCCCCCCCOP(=O)([O-])OC1CC[N+](C)(C)CC1 | – | rhesus monkey, male, plasma | oral, 7 mg/kg, single dose, mean of 3 | – | AUC(0-inf) | 1570 µg·h/mL
COC(=O)N[C@H](C(=O)N[C@@H](Cc1ccccc1)[C@@H](O)CN(Cc1ccc(-c2ccccn2)cc1)NC(=O)[C@@H](NC(=O)OC)C(C)(C)C)C(C)(C)C | – | Caco-2 | – | – | Papp A→B | 11 ×10⁻⁶ cm/s
COc1ccc2c(c1OC)C(=O)O[C@@H]2[C@H]1c2c(cc3c(c2OC)OCO3)CCN1C | shake-flask | PEG400 | 37 °C | – | thermodynamic solubility | 19.4 ± 0.94 mg/g
Oc1ccc(C(c2ccc(O)cc2)(C(F)(F)F)C(F)(F)F)cc1 | refers to: free compound | Hsd:Sprague Dawley rat female, plasma | oral gavage, 340 mg/kg single dose | – | alpha half-life | 54.7 min
C=CC(N)CCC(=O)O (stereo not drawn) | – | male Sprague-Dawley rat, plasma | oral, 1.0 mg/kg, formulation 3, together with: low-fat infant formula 1500 mg/kg | – | Tmax (median) | 40.2 min
COc1ccc2nc([S@@+]([O-])Cc3ncc(C)c(OC)c3C)[nH]c2c1 | – | human healthy | 40 mg, vessel puncture site pain | – | adverse events | 0%
Clc1ccccc1C(c1ccccc1)(c1ccccc1)n1ccnc1 | shake-flask | Captex 355 | 37 °C | – | thermodynamic solubility | 18.8 ± 0.59 mg/g
CC1(C)C(/C=C/C=C/C=C/C=C2/N(CCC(=O)O)c3ccc4ccccc4c3C2(C)C)=[N+](CCC(=O)[O-])c2ccc3ccccc3c21 | NIR fluorescence imaging | mouse, ear | intravenous | – | extravasation half-life | 3.86 min
Cc1cc(-n2c(=O)[nH]c(=O)n(C)c2=O)ccc1Oc1ccc(SC(F)(F)F)cc1 | shake-flask | soybean oil | 37 °C | – | thermodynamic solubility | 0.64 ± 0.04 mg/g
CC1(C)C2CCC1(C)C(OC(=O)C(O)Cc1ccc(O)c(O)c1)C2 (stereo not drawn) | – | Sprague-Dawley rat, plasma | intravenous, 6 mg/kg | – | clearance | 269 mL/min/kg

Molecule | assay | system | setting | how to read | quantity | result
COc1cc(C)c(/C=C/C(C)=C/C=C/C(C)=C/C(=O)O)c(C)c1C | shake-flask | soybean oil | 37 °C | – | thermodynamic solubility | 0.12 ± 0.01 mg/g
COc1cc(F)c(F)c(Nc2ccc(I)cc2F)c1NS(=O)(=O)C1(C[C@H](O)CO)CC1 | – | human patients, plasma | oral, 30 mg twice daily, cycle 1 day 15, together with: copanlisib 0.6 mg/kg intravenous weekly | – | AUC(0-8 h) | 2.56 µg·h/mL
C[C@](N)(Cc1ccc(O)c(O)c1)C(=O)O | – | supercritical carbon dioxide | 5 h, 313 K, 30 MPa, density 910.3 kg/m3 | – | solubility | 334 µg/mL (≈ 1580 µM)
Cc1cccc(Nc2ccccc2C(=O)O)c1C | shake-flask | polysorbate 80 | 37 °C | – | thermodynamic solubility | 26.2 ± 0.65 mg/g
Cc1cc(-c2cc(OC(=O)c3ccccc3)ccc2Cl)cc2nnc(Nc3ccc(OCCN4CCCC4)cc3)nc12 | – | Dutch Belted rabbit, cornea | topical ocular, 40 µL drop of 0.6%, 2 h | – | tissue concentration | 38 nM
N=S(=O)(c1ccccc1)N1CCCCC1 (stereo not drawn) | HPLC | – | pH 7.5 | – | chromatographic logD | 1.9
CN1C(=O)C2(Nc3ccccc3C(=O)N2Cc2ccco2)c2cc(Br)ccc21 (stereo not drawn) | shake flask | aqueous buffer | pH 7.4 | – | logD | 3
Cc1ncnc2c1c(Cl)cn2[C@@H]1O[C@H](CO)[C@@H](O)[C@H]1O | metabolic stability | mouse, liver microsomes | 15 min | – | compound remaining | 99%
C/C=C/C=C/C=C/CC/C=C/C(=O)NCC(C)(C)O | – | rat, small intestine site 4 contents | oral, dose not given, 4 h, β-glucuronidase treated | relative to: ingested amount | recovery | 0.01%
C[N+]1(CC(=O)NC2CCCCCCCCCCC2)CCCCC1 | metabolic stability | male CD-1 mouse, liver microsomes | 1 µM, pH 7.4 | – | microsomal CLint | 196 µL/min/mg
COc1ccc(Cl)cc1C(=O)NCCc1ccc(S(=O)(=O)NC(=O)NC2CCCCC2)cc1 | shake-flask | soybean oil | 37 °C | – | thermodynamic solubility | ≤ 0.05 mg/g
C[C@]12CC[C@@H]3c4ccc(O)cc4CC[C@H]3[C@@H]1C[C@@H](O)[C@@H]2O | GC-MS | breast cancer women on NSAI, serum | vaginal, 0.03 mg, 1 h, day 0 | – | maximum serum concentration | 0.0188 ng/mL
OC[C@@H](O)[C@@H](O)[C@H](O)[C@H](O)CO | equilibrium dialysis | cellulose membrane, cell-free | pH 7.4, no Pluronic P85 | – | effective permeability | 133 ± 12 ×10⁻⁶ cm/s
O=C1c2c(O)cc(O)cc2O[C@H](c2cc(O)c(O)c(O)c2)[C@H]1O | mass spectrometry | Caco-2 | 40 µM, 6 h | – | Papp A→B | 17.3 ×10⁻⁶ cm/s
Cc1nc2cccc(OCC(C)(C)C(=O)NC(C)C)c2c(N)c1C(=O)O | – | Sprague-Dawley rat, female, plasma | oral gavage, 30 mg/kg, day 1 | – | AUC(0-last) | 0.095 ± 0.0204 µg·h/mL
N[C@@H](CC(=O)N1CCn2c(nnc2C(F)(F)F)C1)Cc1cc(F)c(F)cc1F | – | healthy Korean subjects, plasma | oral, 100 mg single dose, ABCB1 G2677T/A AT+GT | – | AUC(0-2 h) | 0.478 ± 0.192 µg·h/mL
CS(=O)(=O)n1cc2c(n1)CN([C@H]1CO[C@H](c3cc(F)ccc3F)[C@@H](N)C1)C2 | – | male human, urine | oral, 200 mg, single dose, fasted, healthy volunteers | – | renal clearance | 45 mL/min
CC(C)NCC(O)c1ccc(NS(C)(=O)=O)cc1 (racemic) | – | male Hartley guinea pig, anaesthetized | intravenous infusion, 3 mg/kg, 10 min infusion | relative to: baseline | QTc change | 10.9 ± 1.8%
